Results pooled from the literature.
Parts stem from different laboratories: compare values within a part only.

Block 1
Target: Probable WRKY transcription factor 33, C-terminal DNA-binding domain (WRKY33, Arabidopsis thaliana, UniProt Q8S8P5, residues 346-449)
Method: DNA-protein interaction ELISA
Molecule type: double-stranded DNA, one strand shown
Medium: in vitro, bacterial lysate
Tested at: not given
Setting: whole dsDNA probe, crude lysate protein
Relative to: highest signal in screen
Reading: higher = stronger binding
Construct (chain): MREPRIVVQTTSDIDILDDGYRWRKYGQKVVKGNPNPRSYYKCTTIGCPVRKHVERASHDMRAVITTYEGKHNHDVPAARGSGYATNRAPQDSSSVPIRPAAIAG
Strand	relative absorbance
AAAAAAGTCCATAAACTAAATTGGATAAAA	33.7 % of maximum
AAAAAAACTCTCCGGGTACAATTGCAAAAA	54.5 % of maximum
AAAAAATTGGTTCTCATTTCTACTTCAAAA	41.1 % of maximum
AAAAAATACTGGCTGTCTCGTTCACAAAAA	30.8 % of maximum
AAAAAACCCGTTCTACCTTATTCCTGAAAA	39.8 % of maximum
AAAAAAACCTCTTTATTCTCGATTGTAAAA	29.9 % of maximum
AAAAAAGGGAGTCATGCTTCTTGTTTAAAA	60.1 % of maximum
AAAAAAGGAAAACGAGTTCATCTGGTAAAA	35.9 % of maximum
AAAAAACACAGCATTAGGCTATCGGTAAAA	40.2 % of maximum
AAAAAAGGTTTAGCCCATGCCTGTGCAAAA	28.7 % of maximum
AAAAAAGTGCACGACCCATTTATATAAAAA	47.8 % of maximum

Block 2
Target: RNA binding protein fox-1 homolog 2, RRM domain, GST-SBP tag (RBFOX2, Homo sapiens, UniProt O43251-10, residues 100-194)
Method: RNA Bind-n-Seq
Molecule type: RNA
Medium: in vitro
Tested at: 365 nM
Setting: natural RNA segment, single round, ends assumed
Relative to: no-protein control
Reading: higher = stronger binding
All sequences stand within: GGGAGUUCUACAGUCCGACGAUC … UGGAAUUCUCGGGUGCCAA
Target sequence (chain): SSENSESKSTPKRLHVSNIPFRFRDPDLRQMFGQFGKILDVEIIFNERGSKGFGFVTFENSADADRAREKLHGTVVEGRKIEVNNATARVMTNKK
Strand	RBNS enrichment (R)
UAUAGCCAACACUCUGAUGCUGCUCUUUUUCUUGUAGGACCAACCGUCCCAGUUUGCCUGGGACUUUCUCAUUUUUACAGAGUCCCAAAUCCUAGGAAACUGGAGCAACU	0.219
AUUGCAAAUCUUCUAGAAGUUCUCCCCCAAAUCAGGUCAAUGUGUGCCCUCCUGAGCUCCCACCCAGGCAUCUCCAGUGCUCAUGAUCAUGUGUCCCCCAACUCCACCCC	0.553
CUGCCAGCAAUGGUUCCAACUCGGAGGCAGCGCCUCUUGGUCCCCAUUUCUGUAUAGCAGGCGUGUGUGUGUGUGUCGAGGUUUUUUAUUUUUUGCUUAAUCAAACUCCA	0.342
UAAUAGUAUUGAAUGGGGUAUUUACUGUUGAUUAACCUCCUUAGAGAAAAUUAAUGAAUGAGAUGACUAACGGUAGAAAAGUUAUUGCCUAGGAGUGUGAGACUGAUGUU	5.08
CCCCAUUCCACCCUCUCUGGGACUACAUAUGCAUCAAGAGUAGGACAGGAUGCUGCCUUGCCUGGUUUUGUUCUGAGCUGGUGAAUCCUUUGCUCUUUCAGCUAUUCUAG	0.687
GGGGAAAAGAUAUUAACAUCACGUCUUUGUCUCUAGUGCAGUUUUUCGAGAUAUUCCGUAGUACAUAUUUAUUUUUAAACAACGACAAAGAAAUACAGAUAUAUCUUAAA	0.721
GUUAUGUAAUAUUCUUUGGCUACGCAUCUGUCCAGCAUCUUAUUAACCAUAAUACUGUGAUCAUUAUUUGGAAAUAUGUCCUAUGGAAAGAAUAAAAGCAUGUACUUCAC	7.15
GCAGAUAAGUCUUGGAGUGAAACAAAUAAAUAGCAUUGUAUUCCUGGCCAUUUGCCUGGCUAGUUGCUGUCUACAAGGGAGCAUCAAAACAUCACUACUUCUUAUGUAAC	0.501

Block 3
Target: Histone acetyltransferase KAT6A, winged helix 1, GST fusion (KAT6A, Homo sapiens, UniProt Q92794, residues 1-85)
Method: protein binding microarray
Molecule type: double-stranded DNA, one strand shown
Medium: in vitro
Tested at: not given
Setting: 8-mer, flanks averaged, mean of 2 arrays, mostly near background
Relative to: not given
Reading: higher = stronger binding
Residues (chain): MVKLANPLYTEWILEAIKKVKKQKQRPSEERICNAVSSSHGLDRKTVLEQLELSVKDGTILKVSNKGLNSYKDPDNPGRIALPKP
Strand	E-score
GTCAACAA	-0.181
CCTCACCA	-0.241
ACCCTTAC	0.0876
ACCCCTTC	-0.0958
AAAAGAAG	-0.00092
CAACTTTA	-0.158
ACCTTGGC	-0.155
CGGCTAAG	0.308
CAGCAGGA	-0.345

Single results of other studies
Molecule	target	assay	test system	setting	how to read	quantity	result
PhoQ, residues 284 288 289 292 302 303 SMYGEC	PhoP, residues 12 14 15 18 19 STWGI (Escherichia coli, UniProt P23836)	Sort-seq, refers to: YFP reporter	E. coli	PhoQ-PhoP variant library, with: 10 µM Mg2+	relative to: high Mg2+ state, higher = stronger signaling	fold induction	1.69
